# Assay results gathered from unrelated publications.
# A part holds a random share of what one study measured. Positions count from the first letter of the parent shown.
# Chain of UniProt Q9FGV1 (whole entry, looked up): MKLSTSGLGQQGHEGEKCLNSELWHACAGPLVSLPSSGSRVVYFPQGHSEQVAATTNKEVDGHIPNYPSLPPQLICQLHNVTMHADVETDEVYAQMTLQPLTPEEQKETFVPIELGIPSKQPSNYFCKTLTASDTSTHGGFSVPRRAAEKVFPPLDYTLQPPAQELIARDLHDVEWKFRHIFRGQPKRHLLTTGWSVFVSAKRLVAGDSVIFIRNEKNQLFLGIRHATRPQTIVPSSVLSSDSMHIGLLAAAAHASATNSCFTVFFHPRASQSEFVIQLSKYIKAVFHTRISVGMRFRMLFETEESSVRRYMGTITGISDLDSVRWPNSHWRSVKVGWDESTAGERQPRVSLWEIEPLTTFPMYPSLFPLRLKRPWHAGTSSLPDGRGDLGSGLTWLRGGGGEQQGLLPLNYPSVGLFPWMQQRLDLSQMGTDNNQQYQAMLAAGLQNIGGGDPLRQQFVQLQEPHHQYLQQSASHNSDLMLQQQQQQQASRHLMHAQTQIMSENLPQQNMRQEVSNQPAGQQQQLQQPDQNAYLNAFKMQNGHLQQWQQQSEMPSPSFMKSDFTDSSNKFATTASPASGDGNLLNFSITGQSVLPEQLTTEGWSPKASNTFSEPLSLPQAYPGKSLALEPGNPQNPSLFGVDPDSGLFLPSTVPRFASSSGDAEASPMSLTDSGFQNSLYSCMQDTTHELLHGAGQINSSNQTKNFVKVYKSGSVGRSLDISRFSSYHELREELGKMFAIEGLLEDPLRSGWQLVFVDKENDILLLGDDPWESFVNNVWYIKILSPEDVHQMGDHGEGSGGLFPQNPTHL

# Set 1
# Target: CCNA1, cyclin fold, Cln2 fusion (human)
# Method: yeast growth competition, sequencing
# Medium: yeast
# Notes: weak parent motif
# Baseline: not given
# Reading: higher = stronger binding
# Starting sequence: CDC25A docking peptide (human); PPHRRRLLFACSP
Variant,normalised enrichment score
PPHRRRRLFACSP [L7R],0.288
PPHRRHLLFACSP [R6H],0.252
PPHRRRLLFACSR [P13R],0.211
PPHRRRVLFACSP [L7V],0.308
PPIRRRLLFACSP [H3I],0.402
PPHRRRLLFACSF [P13F],0.0668
PPHRNRLLFACSP [R5N],-0.127
PPHRRRLLFRCSP [A10R],0.153
PPHRRRDLFACSP [L7D],0.298
PVHRRRLLFACSP [P2V],0.354

# Set 2
# Target: Interferon regulatory factor 5, full length, phosphomimetic (IRF5, Homo sapiens, UniProt Q13568-2, residues 1-514, S451D/S453D/S456D/S462D)
# Method: protein-binding microarray
# Molecule type: double-stranded DNA, one strand shown
# Medium: in vitro
# Concentration: 940 nM top
# Notes: 60-bp whole probe
# Added: salmon DNA 0.4 mg/ml
# Baseline: random background probes
# Reading: higher = stronger binding
# Shared flanks, not repeated: GCCTAGCAC … GTCTTGATTCGCTTGACGCTGCTG
Oligonucleotide,fitted relative affinity [z-score]
TTAGGACGGGGTTTCGGTTAGTGCTAG,7.05
TTAGGTATCGGTCTCGATTAGTGCTAG,9.56
GACGGTATCGGGACTTGGGACGTGCTA,2.77
TTAGATCTCAGTTTCGTTTAGTGCTAG,6.09
GGTCCTTTCTGCCTCAGAGGGTGCTAG,0.407
TTAGAACTGAATCTCGATTAGTGCTAG,0.453
TGTGTTTTCACTTTTCCTACGTGCTAG,2.41
TTAAATATCGGGTTTCGATTAGTGCTA,5.48
TCATCTCCAGGGTTTCTCACTGTGCTA,0.613
GACGATATCGGGACTGGAGCCGTGCTA,-0.312
GACGAACTGGGGTATCGAGGCGTGCTA,0.682
TTAGGTCTCCTTCTCCTTCAGTGCTAG,0.519
GATGGTCTCCTACTGCTGACGTGCTAG,-0.131
TTAGGACTGCTTCTCCTATAGTGCTAG,0.0344
TCATGTCTCAGAGTCCTACTGTGCTAG,0.204
TCACAATTCTTTTTATGACTGTGCTAG,0.786

# Set 3
# Target: Ras GTPase-activating protein-binding protein 1, full length (G3BP1, Homo sapiens, UniProt Q13283)
# Chain of UniProt Q13283 (whole entry, looked up): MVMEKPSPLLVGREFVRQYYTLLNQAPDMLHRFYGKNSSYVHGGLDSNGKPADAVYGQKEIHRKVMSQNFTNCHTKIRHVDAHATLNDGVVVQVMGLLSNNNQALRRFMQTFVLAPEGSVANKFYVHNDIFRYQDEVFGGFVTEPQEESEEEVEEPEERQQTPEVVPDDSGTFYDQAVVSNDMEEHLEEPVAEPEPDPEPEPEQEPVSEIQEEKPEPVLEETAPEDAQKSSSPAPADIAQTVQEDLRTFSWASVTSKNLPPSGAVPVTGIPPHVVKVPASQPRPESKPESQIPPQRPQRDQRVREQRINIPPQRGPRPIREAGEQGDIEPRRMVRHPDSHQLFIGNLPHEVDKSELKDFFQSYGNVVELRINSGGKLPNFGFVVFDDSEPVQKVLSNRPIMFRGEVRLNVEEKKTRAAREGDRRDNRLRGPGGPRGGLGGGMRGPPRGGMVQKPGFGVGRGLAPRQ
# Method: RNA Bind-n-Seq
# Molecule type: RNA
# Medium: in vitro
# Concentration: 200 nM
# Notes: whole 134-nt RNA, ends assumed
# Added: 150 mM KCl
# Baseline: input library
# Reading: higher = stronger binding
Oligonucleotide,log2 enrichment
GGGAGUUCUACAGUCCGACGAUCGUCCUGUGCUACACAUCGUAUGUACCGAAUCGGGAAAAAAAGGGAAAGGGAAAAAGGGAAAGUAUUAUGUUACGCCGUUCGGAUCUGCACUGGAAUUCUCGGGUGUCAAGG,-0.581
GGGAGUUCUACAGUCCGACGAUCGUCCUGUGCUACACAUCGUAUGUACCGAAUCGGGGAAAGGGGAAAGGGGAAAAAGGGGAAAGUAUUAUGUUACGCCGUUCGGAUCUGCACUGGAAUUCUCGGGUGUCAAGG,0.381
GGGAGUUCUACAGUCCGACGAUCCCUCAAGUCCUGUGCUACACAUCGUAUGUACCGAAUCGGUGGUGGAAAAAGGAAAGUAUUAUGUUACGCCGUUCGGAUCUGCACUUCCAGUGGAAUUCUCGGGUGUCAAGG,-0.0629
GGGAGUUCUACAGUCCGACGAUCUCAAGUCCUGUGCUACACAUCGUAUGUACCGAAUCGGGGCCGGGCCGGGGCCGGAAAGUAUUAUGUUACGCCGUUCGGAUCUGCACUUCCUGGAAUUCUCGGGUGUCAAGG,-0.475
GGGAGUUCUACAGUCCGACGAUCUCCUGUGCUACACAUCGUAUGUACCGAAUCGUGUGUGUGUGUGUGUGUGUGUGUGUGUGUAAAGUAUUAUGUUACGCCGUUCGGAUCUGCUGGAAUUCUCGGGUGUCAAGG,0.99
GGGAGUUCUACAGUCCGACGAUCUUCUCUGCCGGCUCAGAGGAGAGGAGACGCCGUGAGCGGGACGACCAGAUGUACCGAGAGCGGCUGCGCACCUUGCUGGUCAUCGCGGUUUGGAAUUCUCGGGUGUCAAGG,-1.66
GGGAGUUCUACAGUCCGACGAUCGCAGGAAGUAAAAACAAAUGGAAAUGCUUCGGAUAGUGGCAGAAAUGGGGGUUGCUAAGGAAAGGGUGGGAUGGGAGUGGGUAAAGAGUUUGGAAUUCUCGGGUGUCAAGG,0.824
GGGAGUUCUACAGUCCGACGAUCUAACUUUAGAGGAGGAUCUGAUGGAUAUGGCAGUGGACGUGGAUUUGGGGAUGGCUAUAAUGGGUAUGGAGGAGGACCUGGAGGUGGCCAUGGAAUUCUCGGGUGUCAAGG,0.289
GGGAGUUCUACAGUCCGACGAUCUAACUUUAGAGGAGGAUCCGAUGGAUAUGGCAGUGGACGUGGAUUUGGGGAUGGCUAUAAUGGGUAUGGAGGAGGACCUGGAGGUGGCAAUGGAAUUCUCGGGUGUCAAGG,0.438
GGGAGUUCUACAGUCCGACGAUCCACAGACUACACGCACCCACACAGACACAGAGGGAAGGGGUUGGGAUGGGGACAGGGUGCACAGCAGGGCGGGGUAGGACCCCAGCCCCUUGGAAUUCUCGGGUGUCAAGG,1.77
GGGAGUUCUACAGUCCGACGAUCUUCUGCACCUCUGCUACCUAAAGAAGACCCAAUCUUCACAUAUUUAUCUAAACGGUUAGGAAGGAGUAUAGAUGACAUAGGUCACCUCAUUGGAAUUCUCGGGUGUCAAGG,0.18
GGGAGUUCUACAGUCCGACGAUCUCAAGUCCUGUGCUACACAUCGUAUGUACCGAAUCGGAAAGGUUUGGUUUUUGGAAAGUAUUAUGUUACGCCGUUCGGAUCUGCACUUCCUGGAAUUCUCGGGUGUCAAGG,-0.785
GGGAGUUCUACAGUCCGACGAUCUGUCCCUGGUGGCAUGCGGGGAGGAAGAGGUGGCCUCAUGGAUCGUGGUGGUCCCGGUGGAAUGUUCAGAGGUGGCCGUGGUGGAGACAGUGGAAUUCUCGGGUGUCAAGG,0.0978
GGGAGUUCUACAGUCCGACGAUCGCAGGAAGUAAAAACAAAUGGAAAUGCUUCGGAUCGUGGCAGGGGUGGGGGUUGCUAAGGAAAGGGUGGGAUGGGAGUGGGUAAAGAGUUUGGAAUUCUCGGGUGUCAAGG,1.25

# Set 4
# Target: ABI1, truncated, D143A, DHFR fusion (Arabidopsis thaliana)
# Method: DHFR PCA, deep sequencing
# Medium: yeast
# Notes: methotrexate growth selection, single substitutions
# Added: (+)-ABA 2500 µM
# Baseline: wild-type fitted maximum
# Reading: higher = stronger binding
# Starting sequence: PYL1, truncated, DHFR fusion (Arabidopsis thaliana); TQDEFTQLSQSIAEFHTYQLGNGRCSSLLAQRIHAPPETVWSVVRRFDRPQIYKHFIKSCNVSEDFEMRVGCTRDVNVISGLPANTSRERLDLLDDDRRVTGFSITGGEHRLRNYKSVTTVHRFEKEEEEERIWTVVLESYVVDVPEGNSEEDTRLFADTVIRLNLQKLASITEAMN; partner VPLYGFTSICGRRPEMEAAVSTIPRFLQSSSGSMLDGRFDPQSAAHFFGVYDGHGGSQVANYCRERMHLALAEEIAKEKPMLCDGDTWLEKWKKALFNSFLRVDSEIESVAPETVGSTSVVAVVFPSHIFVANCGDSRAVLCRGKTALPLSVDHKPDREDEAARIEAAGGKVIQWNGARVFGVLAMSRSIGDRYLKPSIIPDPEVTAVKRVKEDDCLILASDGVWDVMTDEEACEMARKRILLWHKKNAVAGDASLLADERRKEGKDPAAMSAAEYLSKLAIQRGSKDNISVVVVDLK
Variant,relative binding score [%]
Q31F,79.3
V78C,97.2
T173P,66.9
S11E,108
Y141L,11.1
E67D,98.3
T119Y,22.3
T160Q,94.6
G102K,97.8

# Set 5
# Target: Histone acetyltransferase KAT6A, both winged helices, GST fusion (KAT6A, Homo sapiens, UniProt Q92794, residues 1-181)
# Method: protein binding microarray
# Molecule type: double-stranded DNA, one strand shown
# Medium: in vitro
# Concentration: not given
# Notes: 8-mer, flanks averaged, mean of 2 arrays, mostly near background
# Baseline: not given
# Reading: higher = stronger binding
# Residues (chain): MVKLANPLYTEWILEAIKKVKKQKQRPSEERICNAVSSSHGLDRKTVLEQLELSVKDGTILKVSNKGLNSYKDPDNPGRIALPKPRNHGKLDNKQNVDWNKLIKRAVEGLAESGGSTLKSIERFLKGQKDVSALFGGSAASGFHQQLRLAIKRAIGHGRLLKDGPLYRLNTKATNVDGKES
Oligonucleotide,E-score
CAAGAAAC,-0.0799
CTCGAGAA,-0.0619
CGGCGCAG,0.289
ACAGTGGT,-0.246
CATCCAGA,-0.105
AGTTACTG,-0.117
ACCGTAAA,0.229
CTGATTCA,-0.114
CTAGAGTA,-0.104
TTGCCCAA,0.0523
CCGCGAAC,0.264
AACGTCTT,-0.115
ACACAGAT,-0.197
AAAGCGTG,0.183
CATCGGCA,0.135
GTAGTCCA,-0.15
TCACTGCA,-0.0886
ATGCTAAC,-0.0598

# Set 6
# Target: Sal-like protein 4, full length isoform A (SALL4, Homo sapiens, UniProt Q9UJQ4, residues 1-1053)
# Chain of UniProt Q9UJQ4 (whole entry, looked up): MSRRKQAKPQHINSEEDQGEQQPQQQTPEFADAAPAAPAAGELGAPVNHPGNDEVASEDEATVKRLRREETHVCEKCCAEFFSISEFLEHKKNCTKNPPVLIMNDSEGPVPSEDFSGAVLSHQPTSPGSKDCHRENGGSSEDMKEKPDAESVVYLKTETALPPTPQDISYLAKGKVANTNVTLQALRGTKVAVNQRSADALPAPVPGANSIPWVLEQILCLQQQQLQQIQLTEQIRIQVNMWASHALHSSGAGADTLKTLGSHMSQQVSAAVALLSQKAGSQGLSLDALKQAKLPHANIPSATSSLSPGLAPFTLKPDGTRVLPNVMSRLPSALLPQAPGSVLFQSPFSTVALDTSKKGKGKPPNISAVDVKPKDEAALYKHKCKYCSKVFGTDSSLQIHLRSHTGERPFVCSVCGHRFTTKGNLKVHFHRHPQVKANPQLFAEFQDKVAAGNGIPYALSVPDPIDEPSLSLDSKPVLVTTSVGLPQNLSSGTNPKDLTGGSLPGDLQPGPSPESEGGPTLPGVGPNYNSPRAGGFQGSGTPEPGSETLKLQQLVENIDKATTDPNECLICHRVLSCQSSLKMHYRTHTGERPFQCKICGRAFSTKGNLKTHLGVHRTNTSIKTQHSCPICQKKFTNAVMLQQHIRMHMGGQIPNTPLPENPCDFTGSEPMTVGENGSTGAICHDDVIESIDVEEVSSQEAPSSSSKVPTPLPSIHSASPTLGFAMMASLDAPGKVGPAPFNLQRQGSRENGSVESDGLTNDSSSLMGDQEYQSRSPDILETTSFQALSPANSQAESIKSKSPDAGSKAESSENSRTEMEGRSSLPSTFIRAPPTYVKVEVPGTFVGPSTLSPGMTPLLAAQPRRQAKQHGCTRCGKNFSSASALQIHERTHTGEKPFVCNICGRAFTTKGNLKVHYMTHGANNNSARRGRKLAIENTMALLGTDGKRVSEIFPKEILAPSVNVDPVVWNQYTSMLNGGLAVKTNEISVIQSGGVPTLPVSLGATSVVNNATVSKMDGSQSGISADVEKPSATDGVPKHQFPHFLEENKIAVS
# Method: universal PBM
# Molecule type: double-stranded DNA, one strand shown
# Medium: in vitro
# Concentration: 600 nM
# Notes: 8-mer, flanks averaged, mean of replicates
# Reading: higher = stronger binding
Oligonucleotide,E-score
GACGGACC,-0.278
ACCACTAG,0.00351
CGTCATGC,-0.17
ACCACCCA,-0.204
ACCTTACA,0.141
GAGTACGA,0.0792
ACGGCCTG,-0.295
AAAGAACG,0.099
GGAGATAA,0.183
CGTCCGTA,-0.0928
AACGTCGA,0.144
CCTTGTGC,-0.149
CAGGGAAC,-0.133
GGGGACCA,-0.358
CTCAGGTC,-0.201
GCCCTTAA,-0.0262
CGTACATA,0.324
CTATTTCC,0.191
CCAATCTA,0.0249
GAGGAACA,-0.0131
CACAAGAC,0.0072
TGAGCACA,-0.0135

# Set 7
# Target: Hepatocyte nuclear factor 3-beta, forkhead domain (FOXA2, Homo sapiens, UniProt Q9Y261, residues 142-269)
# Method: protein-binding microarray
# Molecule type: double-stranded DNA, one strand shown
# Medium: in vitro
# Concentration: not given
# Notes: k-mer, scored over probes, only values ≥0.25
# Reading: higher = stronger binding
# Residues (chain): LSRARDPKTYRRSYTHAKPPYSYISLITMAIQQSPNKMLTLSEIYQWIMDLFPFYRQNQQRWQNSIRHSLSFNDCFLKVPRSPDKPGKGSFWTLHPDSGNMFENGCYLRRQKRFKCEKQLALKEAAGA
Oligonucleotide,E-score
AAAAGTAT,0.251
TCACAACA,0.26
ACATATGT,0.394
AATATGGA,0.328
AATAGGAT,0.268
TACGAATA,0.304
TAATGTAA,0.362
AATATAGT,0.316
AACATAAT,0.369
ACATAAGG,0.289
AAACACTT,0.267
ATACAAGG,0.25
GTAAATCA,0.282
TAATTCAA,0.282
ATGCAAAC,0.274
ATTATACA,0.318
ACGATATG,0.301
ATACAGAT,0.283
ATAGAAAC,0.301
ATGATTAA,0.291
ACATGTAC,0.26
AAAATCCA,0.31
AAATGTAT,0.295
TATACCGA,0.324
ACTGTAAA,0.253

# Other studies, line by line
# B1: IAA33 (Arabidopsis thaliana, UniProt Q9FKM7); chain MNSFEPQSQDSLQRRFHQDNSTTQQPRDTTTPFIPKPASKNHNNSNSSSGAAGRSFQGFGLNVEDDLVSSVVPPVTVVLEGRSICQRISLDKHGSYQSLASALRQMFVDGADSTDDLDLSNAIPGHLIAYEDMENDLLLAGDLTWKDFVRVAKRIRILPVKGNTRQVKRNE
Molecule,partner,assay,scale,endpoint,value
B1 (IAA33),"ARF8 699-811 (Arabidopsis thaliana, UniProt Q9FGV1)",two-hybrid,"baseline: out of 2 tests, higher = firmer interaction",positive tests,1

# Some of these lines once more (set 6):
Oligonucleotide,E-score
GAGTACGA,0.0792
CTATTTCC,0.191
CGTACATA,0.324
CCAATCTA,0.0249
GGAGATAA,0.183
GCCCTTAA,-0.0262
ACCTTACA,0.141
GACGGACC,-0.278
CACAAGAC,0.0072
GAGGAACA,-0.0131
CTCAGGTC,-0.201
GGGGACCA,-0.358
